Measured values gathered from unrelated publications.
Protocols differ between the studies behind these lines. ± marks the error that the study gave.
Chymotrypsinogen A: Chymotrypsinogen A (Bos taurus, UniProt P00766)
PPARA ligand-binding domain: Peroxisome proliferator-activated receptor alpha, ligand-binding domain (PPARA, Homo sapiens, UniProt Q07869)
UniProt Q07869, sequence (whole entry, looked up): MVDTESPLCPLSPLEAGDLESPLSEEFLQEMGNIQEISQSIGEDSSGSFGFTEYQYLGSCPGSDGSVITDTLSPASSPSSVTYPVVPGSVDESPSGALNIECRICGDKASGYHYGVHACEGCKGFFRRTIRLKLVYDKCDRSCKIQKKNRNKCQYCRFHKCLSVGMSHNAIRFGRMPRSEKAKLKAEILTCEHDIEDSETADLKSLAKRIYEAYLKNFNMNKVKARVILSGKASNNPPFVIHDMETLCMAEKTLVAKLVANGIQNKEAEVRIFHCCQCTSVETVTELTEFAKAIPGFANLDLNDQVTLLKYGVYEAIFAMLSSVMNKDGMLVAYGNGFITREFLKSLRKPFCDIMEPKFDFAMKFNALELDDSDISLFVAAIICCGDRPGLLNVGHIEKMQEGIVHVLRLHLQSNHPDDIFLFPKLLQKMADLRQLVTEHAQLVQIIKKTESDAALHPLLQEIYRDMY
GBA2: Beta-glucosidase (GBA2, Homo sapiens, UniProt Q9HCG7)
UniProt Q9HCG7, sequence (whole entry, looked up): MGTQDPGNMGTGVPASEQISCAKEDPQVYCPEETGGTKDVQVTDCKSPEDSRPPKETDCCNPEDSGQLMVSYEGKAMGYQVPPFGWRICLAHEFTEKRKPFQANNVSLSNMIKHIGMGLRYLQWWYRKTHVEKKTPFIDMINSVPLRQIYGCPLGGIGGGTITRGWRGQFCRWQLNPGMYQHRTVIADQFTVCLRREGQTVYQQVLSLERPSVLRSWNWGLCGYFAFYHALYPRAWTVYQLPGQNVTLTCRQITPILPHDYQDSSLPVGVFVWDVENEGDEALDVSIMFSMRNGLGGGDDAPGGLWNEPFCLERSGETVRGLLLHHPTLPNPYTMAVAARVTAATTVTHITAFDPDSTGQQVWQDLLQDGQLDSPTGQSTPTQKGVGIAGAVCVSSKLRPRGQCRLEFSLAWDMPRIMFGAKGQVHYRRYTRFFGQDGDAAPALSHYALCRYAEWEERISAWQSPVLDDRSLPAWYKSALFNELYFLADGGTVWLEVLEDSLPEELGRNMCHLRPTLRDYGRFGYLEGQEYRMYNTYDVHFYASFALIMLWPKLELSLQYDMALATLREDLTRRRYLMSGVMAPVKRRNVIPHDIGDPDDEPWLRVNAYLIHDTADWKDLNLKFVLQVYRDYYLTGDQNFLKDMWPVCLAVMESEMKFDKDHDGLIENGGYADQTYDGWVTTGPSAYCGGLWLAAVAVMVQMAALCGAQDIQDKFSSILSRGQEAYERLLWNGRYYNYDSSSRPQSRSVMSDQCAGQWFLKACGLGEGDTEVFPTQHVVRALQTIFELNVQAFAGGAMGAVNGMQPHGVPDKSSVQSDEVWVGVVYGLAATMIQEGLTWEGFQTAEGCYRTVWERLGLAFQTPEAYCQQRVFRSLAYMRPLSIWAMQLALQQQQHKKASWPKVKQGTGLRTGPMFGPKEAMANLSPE
UniProt P10632, sequence (whole entry, looked up): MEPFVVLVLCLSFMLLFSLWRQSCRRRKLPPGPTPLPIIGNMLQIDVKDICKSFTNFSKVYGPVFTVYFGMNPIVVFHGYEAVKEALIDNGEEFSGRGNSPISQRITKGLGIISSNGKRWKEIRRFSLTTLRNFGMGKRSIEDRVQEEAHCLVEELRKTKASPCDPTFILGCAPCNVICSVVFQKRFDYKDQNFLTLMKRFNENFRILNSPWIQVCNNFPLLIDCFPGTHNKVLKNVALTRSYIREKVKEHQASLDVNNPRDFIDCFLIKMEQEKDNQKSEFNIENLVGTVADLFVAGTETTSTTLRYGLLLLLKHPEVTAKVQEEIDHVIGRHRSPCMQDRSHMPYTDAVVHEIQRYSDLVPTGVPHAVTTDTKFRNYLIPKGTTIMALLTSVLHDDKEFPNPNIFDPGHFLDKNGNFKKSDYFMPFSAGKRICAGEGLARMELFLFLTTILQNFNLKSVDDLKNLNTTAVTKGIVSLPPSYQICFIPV
UniProt P48736, sequence (whole entry, looked up): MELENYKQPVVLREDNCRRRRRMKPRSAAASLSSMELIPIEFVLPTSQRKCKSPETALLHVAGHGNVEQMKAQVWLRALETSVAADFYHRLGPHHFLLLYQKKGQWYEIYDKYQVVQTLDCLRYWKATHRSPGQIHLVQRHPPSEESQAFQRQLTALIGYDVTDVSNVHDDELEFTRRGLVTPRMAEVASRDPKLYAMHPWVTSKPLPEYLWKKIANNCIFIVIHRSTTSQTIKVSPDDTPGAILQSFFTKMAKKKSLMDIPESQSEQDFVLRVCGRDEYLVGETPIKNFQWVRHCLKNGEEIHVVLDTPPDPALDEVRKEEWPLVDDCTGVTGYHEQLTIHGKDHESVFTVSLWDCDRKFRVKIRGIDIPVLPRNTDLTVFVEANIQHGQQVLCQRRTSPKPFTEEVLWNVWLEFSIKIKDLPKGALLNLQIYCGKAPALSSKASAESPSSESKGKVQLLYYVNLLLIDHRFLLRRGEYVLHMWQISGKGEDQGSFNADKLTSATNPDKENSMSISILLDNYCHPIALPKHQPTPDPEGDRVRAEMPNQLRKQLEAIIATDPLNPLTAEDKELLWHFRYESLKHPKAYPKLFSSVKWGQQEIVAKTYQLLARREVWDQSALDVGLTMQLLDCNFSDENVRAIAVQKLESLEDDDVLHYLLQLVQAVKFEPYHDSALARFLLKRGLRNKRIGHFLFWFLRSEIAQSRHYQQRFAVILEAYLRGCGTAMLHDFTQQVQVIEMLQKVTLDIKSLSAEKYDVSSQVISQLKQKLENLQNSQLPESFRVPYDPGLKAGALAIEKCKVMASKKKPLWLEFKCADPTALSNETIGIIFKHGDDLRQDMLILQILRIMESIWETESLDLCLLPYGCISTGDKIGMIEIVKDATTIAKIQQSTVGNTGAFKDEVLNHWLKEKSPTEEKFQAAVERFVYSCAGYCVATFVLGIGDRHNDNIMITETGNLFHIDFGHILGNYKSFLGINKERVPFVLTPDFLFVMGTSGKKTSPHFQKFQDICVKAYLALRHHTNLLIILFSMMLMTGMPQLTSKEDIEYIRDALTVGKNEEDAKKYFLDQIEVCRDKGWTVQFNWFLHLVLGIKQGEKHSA
UniProt P41240, sequence (whole entry, looked up): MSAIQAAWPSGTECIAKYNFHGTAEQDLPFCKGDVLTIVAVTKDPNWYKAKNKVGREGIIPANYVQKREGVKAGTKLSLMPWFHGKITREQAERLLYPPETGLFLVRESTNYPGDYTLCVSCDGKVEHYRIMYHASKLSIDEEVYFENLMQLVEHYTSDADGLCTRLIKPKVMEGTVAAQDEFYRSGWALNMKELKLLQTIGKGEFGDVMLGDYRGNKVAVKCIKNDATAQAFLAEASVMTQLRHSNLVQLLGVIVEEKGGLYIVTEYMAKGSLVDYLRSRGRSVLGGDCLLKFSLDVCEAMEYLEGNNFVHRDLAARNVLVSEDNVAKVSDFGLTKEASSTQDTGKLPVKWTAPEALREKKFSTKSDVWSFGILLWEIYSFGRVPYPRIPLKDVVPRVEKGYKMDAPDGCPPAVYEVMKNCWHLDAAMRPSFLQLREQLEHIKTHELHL
UniProt O14757, sequence (whole entry, looked up): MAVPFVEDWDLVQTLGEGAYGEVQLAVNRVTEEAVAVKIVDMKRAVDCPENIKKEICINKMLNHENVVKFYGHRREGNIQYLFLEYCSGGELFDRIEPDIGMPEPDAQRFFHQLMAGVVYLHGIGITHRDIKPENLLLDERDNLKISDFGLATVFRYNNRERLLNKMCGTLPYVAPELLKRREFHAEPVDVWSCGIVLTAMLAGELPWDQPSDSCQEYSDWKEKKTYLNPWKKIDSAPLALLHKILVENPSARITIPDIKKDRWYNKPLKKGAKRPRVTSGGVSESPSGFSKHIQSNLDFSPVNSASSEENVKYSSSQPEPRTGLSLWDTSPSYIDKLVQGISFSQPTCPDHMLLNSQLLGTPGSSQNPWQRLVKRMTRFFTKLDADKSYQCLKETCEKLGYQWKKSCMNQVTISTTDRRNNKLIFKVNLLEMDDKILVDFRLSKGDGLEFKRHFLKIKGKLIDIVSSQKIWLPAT
UniProt Q8IXJ6, sequence (whole entry, looked up): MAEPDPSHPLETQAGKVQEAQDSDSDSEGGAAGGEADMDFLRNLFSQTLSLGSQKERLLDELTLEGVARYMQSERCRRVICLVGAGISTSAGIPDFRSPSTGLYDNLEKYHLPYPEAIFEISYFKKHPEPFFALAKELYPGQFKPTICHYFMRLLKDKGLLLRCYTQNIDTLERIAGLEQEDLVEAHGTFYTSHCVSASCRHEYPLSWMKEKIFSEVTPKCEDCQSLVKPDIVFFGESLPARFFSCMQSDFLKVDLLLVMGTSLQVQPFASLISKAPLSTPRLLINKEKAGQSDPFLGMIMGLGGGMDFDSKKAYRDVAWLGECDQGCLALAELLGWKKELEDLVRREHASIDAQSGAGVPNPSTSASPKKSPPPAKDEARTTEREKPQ
UniProt Q9NSU2, sequence (whole entry, looked up): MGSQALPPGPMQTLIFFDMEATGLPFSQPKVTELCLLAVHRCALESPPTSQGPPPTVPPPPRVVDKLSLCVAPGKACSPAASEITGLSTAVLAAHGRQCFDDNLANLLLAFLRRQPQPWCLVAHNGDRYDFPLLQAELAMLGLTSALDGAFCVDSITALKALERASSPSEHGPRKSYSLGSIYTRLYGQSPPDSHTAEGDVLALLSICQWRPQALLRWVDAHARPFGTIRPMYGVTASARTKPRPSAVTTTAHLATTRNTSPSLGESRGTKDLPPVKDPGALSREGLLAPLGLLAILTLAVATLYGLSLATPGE

SMILES	target	test	system	conditions	IC50 [µM]
Nc1ncnc2c1c(-c1ccc(Oc3ccccc3)cc1)cn2C1CCCC1	ERBB3 (Homo sapiens, UniProt P21860)	cell-free assay, TR-FRET	–	–	0.085
O=C1Nc2ccccc2/C1=N/c1ccc(Cl)cc1Br	PIK3CG (Homo sapiens, UniProt P48736)	enzyme activity, inhibitor, ADP detection	–	–	0.0187
C[C@@H](NC(=O)C(C(F)(F)F)C(F)(F)F)c1ccccc1	Chymotrypsinogen A	enzyme activity, inhibitor, fluorescence	–	–	> 100
Cc1c(Cc2cccc(OC(C)(C)C(=O)O)c2)c2ccc(C(=O)N[C@@H](C)c3cccc(OC(F)(F)F)c3)cc2n1C	PPARA ligand-binding domain	reporter gene, luciferase reporter	HEK293T, Gal4-PPARα LBD	–	36.7
Cc1[nH]nc2c1N=C(c1ccccc1Cl)c1cnc(N3CCOCC3)cc1N2	Cytochrome P450 2C8 (CYP2C8, Homo sapiens, UniProt P10632)	enzyme activity, inhibitor	human, liver microsomes	–	6.76
CC1Cc2ccccc2N1C1=C(c2ccccc2)C(=O)NC1=O (stereo not shown)	Sensor histidine kinase AirS (Staphylococcus aureus, UniProt Q2FX96)	autophosphorylation, inhibitor, BODIPY-FL-ATPγS in-gel fluorescence	–	lower bound of confidence interval	153
OC[C@@H]1[C@@H](O)[C@H](O)[C@@H](O)CN1CCCCCOCc1ccc(-c2ccc(F)cc2)cc1	GBA2	inhibitor, 4MU-β-D-glucopyranoside	HEK293T homogenates overexpressing GBA2	–	0.001
COCCOc1ccccc1NC(=O)C(C(F)(F)F)C(F)(F)F	Chymotrypsinogen A	enzyme activity, inhibitor, fluorescence	–	–	5.7
OB1c2sccc2C=NN1Cc1ccccc1	PLAU (Homo sapiens, UniProt P00749)	enzyme activity, inhibitor	–	–	> 100
Cc1c(Cc2ccc(OC(C)(C)C(=O)O)cc2)c2ccc(C(=O)N[C@@H](C)c3cccc(C(F)(F)F)c3)cc2n1C	PPARA ligand-binding domain	reporter gene, luciferase reporter	HEK293T, Gal4-PPARα LBD	–	4.11
OC[C@@H]1[C@@H](O)[C@H](O)[C@@H](O)c2nccn21	GBA2	–	HEK293 lysate overexpressing enzyme	pH 5.8, with: 4-MU-β-D-glucopyranoside	> 50
COc1cc2c(cc1OC)-c1n[nH]c(-c3ccc(OCc4ccccc4)cc3)c1C2	CHEK1 (Homo sapiens, UniProt O14757)	enzyme activity, inhibitor	–	–	> 10
COCCn1cc(COc2cccc(Cc3cnc(NC(=O)CSc4nc(C)cc(C)n4)s3)c2)nn1	SIRT2 (Homo sapiens, UniProt Q8IXJ6)	inhibitor	–	–	0.35 ± 0.13
O=C(Nc1ccc(C(=O)Nc2ccc3c(O)cc(S(=O)(=O)O)cc3c2)cc1)c1ccccc1	TREX1 (Homo sapiens, UniProt Q9NSU2)	enzyme activity, inhibitor	–	–	4.72
CCCCCN1C[C@H](O)[C@@H](O)[C@H](O)[C@H]1CO	GBA2	inhibitor, 4MU-β-D-glucopyranoside	HEK293T homogenates overexpressing GBA2	–	0.4
Cc1c(Cc2cccc(OC(C)(C)C(=O)O)c2)c2ccc(C(=O)N[C@@H](C)c3cccc(Cl)c3)cc2n1C	PPARA ligand-binding domain	reporter gene, luciferase reporter	HEK293T, Gal4-PPARα LBD	–	11.7
Cc1ccc(NC(=O)C(C(F)(F)F)C(F)(F)F)cn1	Chymotrypsinogen A	enzyme activity, inhibitor, fluorescence	–	–	8.7
OC[C@@H]1[C@@H](O)[C@H](O)[C@@H](O)CN1CCCCCOCc1ccc(-c2ccccc2)cc1C(F)(F)F	GBA2	inhibitor, 4MU-β-D-glucopyranoside	HEK293T homogenates overexpressing GBA2	–	0.00012
Cc1nn(-c2cccc(N)c2)c(=O)c2cnc(Nc3ccc(N4CCNCC4)cc3)nc12	CSK (Homo sapiens, UniProt P41240)	enzyme activity, inhibitor	–	–	> 10

For quick reference, copied from above:
SMILES	target	test	system	conditions	IC50 [µM]
O=C(Nc1ccc(C(=O)Nc2ccc3c(O)cc(S(=O)(=O)O)cc3c2)cc1)c1ccccc1	TREX1 (Homo sapiens, UniProt Q9NSU2)	enzyme activity, inhibitor	–	–	4.72
